Measured values collected from several papers.
Protocols differ between the studies behind these lines. Several values in a cell are separate wells, animals, samples, runs or records.
Target: Dual specificity tyrosine-phosphorylation-regulated kinase 3 (DYRK3, Homo sapiens, UniProt O43781)

SMILES | test | setting | scale | quantity | value
NC(=O)C[C@H]1CCc2sc3ncnc(O[C@H]4CC[C@H](N5CCOCC5)CC4)c3c21 | enzyme activity, inhibitor | 10 µM |  | inhibition | 11%
CNC(=O)C[C@H](Cc1ccc(C#N)cc1)NC(=O)c1cc(-c2ccc(CN[C@H](C)c3ccc(C)cc3)o2)ccc1Cl | enzyme activity, inhibitor | 1 µM |  | activity vs control | 107%
Cc1cccc(-c2ccc3nc(NC(=O)C4CCCO4)nn3c2)c1 (centres unmarked) | enzyme activity, Dundee kinase panel | 10 µM |  | remaining activity | 59%
NC(=O)[C@@H](O)C[C@H]1CCc2sc3ncnc(O[C@H]4CC[C@H](N5CCOCC5)CC4)c3c21 | enzyme activity, inhibitor | 10 µM |  | inhibition | 7%
C=CC(=O)Nc1cccc(-c2cnc3[nH]cc(C(=O)NC(C)(C)C)c3n2)c1 | kinase activity | 0.1 µM |  | inhibition | 1% and 3%
CCn1cc(C(=O)O)c(=O)c2c(N)c(F)c(NC3CCCCC3)cc21 | kinase activity | 0.1 µM, with: ATP at Km |  | inhibition | -9.5%
C=CC(=O)N1Cc2nc(-c3cc(-c4cc(Cl)cnc4Cl)c(F)cc3F)n(-c3ccncn3)c2C1 | cell-free assay, inhibitor | 1 µM |  | inhibition | 7.3%
Cc1cccc(O[C@H]2CCC[C@@H](C(C)CNCc3ccncc3)C2)c1 (relative stereo) | enzyme activity, inhibitor | 1 µM |  | inhibition | 3%
Nc1nc(Nc2ccccc2)sc1C(=O)c1ccccc1 | enzyme activity, inhibitor | 10 µM |  | remaining activity | 51%
CN1CC[C@@H](COc2cnc(C#N)cc2-c2ccn3nc(NC(=O)C4CC4)cc3c2)C1 | enzyme activity, inhibitor | 1 µM |  | inhibition | 6%
CN1CCN(Cc2ccc(-c3ccc(CO[C@H]4CCC[C@@H]4NC(=O)c4cc(-c5cnn(C)c5)cnc4N)cc3)cc2)CC1 | enzyme activity, inhibitor | 0.1 µM |  | inhibition | 4%
O=C(Cc1ccc(OCc2ccccc2)cc1)NC1(C(=O)O)CCN(C(=O)c2ccc(-c3cccc(Cl)c3)cc2)CC1 | enzyme activity, inhibitor | 10 µM |  | activity vs control | 97%
Cc1cccc(-c2ccc3nc(NC(=O)C4CCOCC4)nn3c2)c1 | enzyme activity, Dundee kinase panel | 10 µM |  | remaining activity | 33%
Nc1ncc(-c2cc(-c3cnn(CC(F)(F)F)c3)ncc2F)nc1C(=O)NC1CNCC(F)C1 (centres unmarked) | enzyme activity | 1 µM | baseline: DMSO control | remaining activity | 84%

Excerpt of the above:
SMILES | test | setting | scale | quantity | value
CN1CCN(Cc2ccc(-c3ccc(CO[C@H]4CCC[C@@H]4NC(=O)c4cc(-c5cnn(C)c5)cnc4N)cc3)cc2)CC1 | enzyme activity, inhibitor | 0.1 µM |  | inhibition | 4%
